Measurements pooled from the literature.
A part holds a random share of what one study measured. Positions count from the first letter of the parent shown.

Set 1
Target: Interferon regulatory factor 7, full length, phosphomimetic (IRF7, Homo sapiens, UniProt Q92985, residues 1-503, S471D/S472D/S475D/S476D/S477D/S483D/S484D/S487D)
Technique: protein-binding microarray
Form: double-stranded DNA, one strand shown
Medium: in vitro
Tested at: 2200 nM top
Notes: 60-bp whole probe
With: salmon DNA 0.4 mg/ml
Reference: random background probes
Direction: higher = stronger binding
Measurement: fitted relative affinity
Shared flanks, not repeated: GCCTAGCAC … GTCTTGATTCGCTTGACGCTGCTG
Target sequence (chain): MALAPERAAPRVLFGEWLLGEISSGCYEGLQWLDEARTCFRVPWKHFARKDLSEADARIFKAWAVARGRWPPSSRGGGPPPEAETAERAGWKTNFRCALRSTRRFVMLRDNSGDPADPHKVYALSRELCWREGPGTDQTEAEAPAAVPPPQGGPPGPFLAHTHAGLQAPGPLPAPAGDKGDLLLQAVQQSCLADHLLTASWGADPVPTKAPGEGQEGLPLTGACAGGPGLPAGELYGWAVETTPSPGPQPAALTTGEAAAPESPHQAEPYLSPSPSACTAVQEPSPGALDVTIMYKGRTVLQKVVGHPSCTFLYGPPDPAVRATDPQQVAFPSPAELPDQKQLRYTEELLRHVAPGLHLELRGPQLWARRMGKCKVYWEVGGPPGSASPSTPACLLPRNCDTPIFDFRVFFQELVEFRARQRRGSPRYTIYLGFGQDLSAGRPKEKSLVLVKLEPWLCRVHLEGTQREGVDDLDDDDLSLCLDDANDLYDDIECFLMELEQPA
GACGGTTTCGGGTATCGGGCCGTGCTA: 5.63 z-score
TTCAGTTTCTCTTTCCTTCTGTGCTAG: 7.83 z-score
TGGGGTTCACTCCGGTACCCGTGCTAG: -0.426 z-score
TTGCTTTCCTTCTTGAACTCGTGCTAG: 3.59 z-score
GTGTTTGTCCCTATTTAAGAGTGCTAG: 2.39 z-score
GACGGTTTCGAGACTGGGGACGTGCTA: 2.84 z-score
ATAGAACTGAGTTTCGATTAGTGCTAG: 3.9 z-score
GACGATCTCAGTCTCGAGACGTGCTAG: 0.388 z-score

Set 2
Target: CCNA1, cyclin fold, Cln2 fusion (human)
Technique: yeast growth competition, sequencing
Medium: yeast
Notes: weak parent motif
Reference: not given
Direction: higher = stronger binding
Measurement: normalised enrichment score
Starting sequence: CDC25A docking peptide (human); PPHRRRLLFACSP
P13V: 0.312
L7E: 0.315
H3G: 0.318
A10C: 0.117
R4V: 0.407
S12K: 0.173
P13D: 0.612
C11W: -0.0452
F9C: 0.219
A10M: 0.407
L8Y: 0.335

Set 3
Target: Sal-like protein 4, full length isoform B (SALL4, Homo sapiens, UniProt Q9UJQ4-2, residues 1-616)
Technique: universal PBM
Form: double-stranded DNA, one strand shown
Medium: in vitro
Tested at: not given
Notes: 8-mer, flanks averaged, mean of replicates
Direction: higher = stronger binding
Measurement: E-score
CCAGAAGG: -0.108
CGGAACTC: -0.301
CAATAGAG: 0.112
GCAACAAC: -0.00327
AGTGGCAC: -0.182
ACAAAAAA: 0.31
ATCGCACC: -0.162
AAGCTAAT: 0.178
GAAACATC: 0.038
GAACTAAA: 0.0675

Single results of other studies
PhoQ, residues 284 288 289 292 302 303 GASLAW  fold induction (PhoP, residues 12 14 15 18 19 HLGGL (Escherichia coli, UniProt P23836); Sort-seq, item: YFP reporter; E. coli; PhoQ-PhoP variant library, with: 10 µM Mg2+; reference: high Mg2+ state, higher = stronger signaling): 0.85

A few entries again (set 1):
GACGGTTTCGAGACTGGGGACGTGCTA: 2.84 z-score
GACGATCTCAGTCTCGAGACGTGCTAG: 0.388 z-score
GTGTTTGTCCCTATTTAAGAGTGCTAG: 2.39 z-score
TGGGGTTCACTCCGGTACCCGTGCTAG: -0.426 z-score
